Experimental data collected from several papers.
± gives the spread as reported.

`CC(C)C[C@@H]1NC(=O)[C@H](C(C)C)NC(=O)[C@H](CO)NC(=O)CNC(=O)CNC(=O)[C@H](CCCNC(=N)N)NC(=O)[C@@H]2CCCN2C(=O)[C@@H](NC(=O)CC[C@H](NC(=O)c2ccc(N(C)Cc3cnc4nc(N)nc(N)c4n3)cc2)C(=O)O)C(C)(C)SSC[C@@H](C(=O)O)NC(=O)CNC(=O)[C@H]([C@@H](C)O)NC(=O)[C@H](C(C)C)NC1=O`: “degradation rate constant” 0.0009 h⁻¹ (HPLC; Phosphate buffer; pH 6.0, 70 °C).
The tissue uptake of `N=C(N)NCCC[C@@H]1NC(=O)[C@H](CCCCNC(=O)CC[C@H](NC(=O)CCOCCOCCOCCOCCNC(=O)CC[C@H](NC(=O)CN2CCN(CC(=O)O)CCN(CC(=O)O)CCN(CC(=O)O)CC2)C(=O)NCCOCCOCCOCCOCCC(=O)N[C@@H](CCC(=O)NCCCC[C@@H]2NC(=O)[C@@H](Cc3ccccc3)NC(=O)[C@H](CC(=O)O)NC(=O)CNC(=O)[C@H](CCCNC(=N)N)NC2=O)C(=O)NCCCC[C@@H]2NC(=O)[C@@H](Cc3ccccc3)NC(=O)[C@H](CC(=O)O)NC(=O)CNC(=O)[C@H](CCCNC(=N)N)NC2=O)C(=O)NCCCC[C@@H]2NC(=O)[C@@H](Cc3ccccc3)NC(=O)[C@H](CC(=O)O)NC(=O)CNC(=O)[C@H](CCCNC(=N)N)NC2=O)NC(=O)[C@@H](Cc2ccccc2)NC(=O)[C@H](CC(=O)O)NC(=O)CNC1=O` [indium-111 labelled] is reported as 0.1 ± 0.01 %ID/g (female athymic nude mice, brain; intravenous, 3 µCi, 0.5 h, U-87 MG glioma xenograft).
`CCCC[C@H](NC(=O)CNC(=O)CNC(=O)c1ccc(NN)nc1)C(=O)N[C@H]1CC(=O)NCCCC[C@@H](C(N)=O)NC(=O)[C@H](Cc2c[nH]c3ccccc23)NC(=O)[C@H](CCCNC(=N)N)NC(=O)[C@@H](Cc2ccccc2)NC(=O)[C@H](Cc2c[nH]cn2)NC1=O` [technetium-99m labelled] has an uptake of 0.09 ± 0.1 %ID/g (C57 mouse, B16/F1 melanoma, bone; 2 h, with: NDP-MSH 6.07 nmol blockade).
`CC(C)C[C@H](NC(=O)[C@@H]1CCCN1C(=O)[C@H](CCCCN)NC(=O)[C@@H](N)CO)C(=O)N1CCC[C@H]1C(=O)N[C@@H](CCC(=O)O)C(=O)N[C@H](C(=O)N[C@H](C(=O)N[C@@H](CC(=O)O)C(=O)N[C@@H](CCC(=O)O)C(=O)N[C@@H](Cc1ccc(O)cc1)C(=O)N[C@@H](Cc1cn(CCOCCOCCOCCNC(=O)CCc2ccc(O)c(CN(CCN(CC(=O)O)Cc3cc(CCC(=O)NCCCC[C@H](NC(=O)N[C@@H](CCC(=O)O)C(=O)O)C(=O)O)ccc3O)CC(=O)O)c2)nn1)C(=O)O)[C@@H](C)O)C(C)C` [gallium-68 labelled] gave an SUV of 0.04 g/g (NMRI nu/nu mouse, LNCaP xenograft, femur; 135.34 nmol/kg, low molar activity).
`N=C(N)NCCC[C@@H]1NC(=O)[C@H](CCCCNC(=O)CNC(=O)CNC(=O)CNC(=O)CC[C@H](NC(=O)CNC(=O)CNC(=O)CNC(=O)[C@H](CCCCNC(=O)c2ccc(NN)nc2)NC(=O)c2ccc(NN)nc2)C(=O)NCC(=O)NCC(=O)NCC(=O)NCCCC[C@@H]2NC(=O)[C@@H](Cc3ccccc3)NC(=O)[C@H](CC(=O)O)NC(=O)CNC(=O)[C@H](CCCNC(=N)N)NC2=O)NC(=O)[C@@H](Cc2ccccc2)NC(=O)[C@H](CC(=O)O)NC(=O)CNC1=O` [technetium-99m labelled] gave a tissue ratio of 10.9 ± 0.82 (female athymic nude mice; intravenous, 1 h, U-87 MG glioma xenograft; reference: tumour over blood).
Under “tumour to tissue ratio”, `N=C(N)NCCC[C@@H]1NC(=O)[C@H](CCCCNC(=O)CCOCCOCCOCCOCCNC(=O)CN2CCN(CC(=O)O)CCN(CC(=O)O)CCN(CC(=O)O)CC2)NC(=O)[C@@H](Cc2ccccc2)NC(=O)[C@H](CC(=O)O)NC(=O)CNC1=O` [indium-111 labelled] is recorded as 2.83 ± 0.14 (athymic nude mice, female, U-87 MG glioma xenograft, tumour and liver; intravenous, 4 h; reference: tumour over liver).
`CSCC[C@H](NC(=O)[C@H](CC(C)C)NC(=O)[C@H](Cc1c[nH]cn1)NC(=O)CNC(=O)[C@@H](NC(=O)[C@H](C)NC(=O)[C@H](Cc1c[nH]c2ccccc12)NC(=O)[C@H](CCC(N)=O)NC(=O)CCCCCNC(=O)CN1CCN(CC(=O)O)CCN(CC(=O)O)CC1)C(C)C)C(N)=O` [gallium-68 labelled] — result for “mean tumour uptake”: 3.28 ± 0.47 %ID/g (microPET imaging; nude mouse PC-3 xenograft, PC-3 tumour; intravenous, 3.7 MBq, 30 min).
For `CN[C@](C)(C[18F])C(=O)O`, the tracer uptake was 0.5 %ID/g (A549 tumour model; host not given, blood; 2 h, tumour-bearing).
`N=C(N)NCCC[C@@H]1NC(=O)[C@H](CCCCNC(=O)CC[C@H](NC(=O)CCOCCOCCOCCOCCNC(=O)CN2CCN(CC(=O)O)CCN(CC(=O)O)CCN(CC(=O)O)CC2)C(=O)NCCCC[C@@H]2NC(=O)[C@@H](Cc3ccccc3)NC(=O)[C@H](CC(=O)O)NC(=O)CNC(=O)[C@H](CCCNC(=N)N)NC2=O)NC(=O)[C@@H](Cc2ccccc2)NC(=O)[C@H](CC(=O)O)NC(=O)CNC1=O` [indium-111 labelled] has a tissue uptake of 0.03 ± 0.01 %ID/g (female athymic nude mice, brain; intravenous, 3 µCi, 72 h, U-87 MG glioma xenograft).
With `CSCC[C@H](NC(=O)[C@H](CC(C)C)NC(=O)[C@H](Cc1c[nH]cn1)NC(=O)CNC(=O)[C@@H](NC(=O)[C@H](C)NC(=O)[C@H](Cc1c[nH]c2ccccc12)NC(=O)[C@H](CCC(N)=O)NC(=O)[C@H](CC(N)=O)NC(=O)CNC(=O)[C@H](Cc1ccc(O)cc1)NC(=O)[C@H](CCCNC(=N)N)NC(=O)[C@H](CCC(N)=O)NC(=O)[C@@H]1CCCN1C(=O)CN1CCN(CC(=O)O)CCN(CC(=O)O)CCN(CC(=O)O)CC1)C(C)C)C(N)=O` [indium-111 labelled] the intact peptide was 3.4 ± 1.3% (radio-HPLC; male Swiss nu/nu mice, blood; intravenous, 1 nmol, 15 min).
`CCCC[C@H](NC(=O)CCCCCCCNC(=O)c1ccc(NN)nc1)C(=O)N[C@H]1CC(=O)NCCCC[C@@H](C(N)=O)NC(=O)[C@H](Cc2c[nH]c3ccccc23)NC(=O)[C@H](CCCNC(=N)N)NC(=O)[C@@H](Cc2ccccc2)NC(=O)[C@H](Cc2c[nH]cn2)NC1=O` [technetium-99m labelled] gave an uptake of 0.02 ± 0.02 %ID/g (C57 mouse, B16/F1 melanoma, brain; intravenous, 4 h).
With `N=C(N)NCCC[C@@H]1NC(=O)[C@H](CCCCNC(=O)CCOCCOCCOCCOCCNC(=O)CC[C@H](NC(=O)CCOCCOCCOCCOCCNC(=O)CC[C@H](NC(=O)CN2CCN(CC(=O)O)CCN(CC(=O)O)CCN(CC(=O)O)CC2)C(=O)NCCOCCOCCOCCOCCC(=O)N[C@@H](CCC(=O)NCCOCCOCCOCCOCCC(=O)NCCCC[C@@H]2NC(=O)[C@@H](Cc3ccccc3)NC(=O)[C@H](CC(=O)O)NC(=O)CNC(=O)[C@H](CCCNC(=N)N)NC2=O)C(=O)NCCOCCOCCOCCOCCC(=O)NCCCC[C@@H]2NC(=O)[C@@H](Cc3ccccc3)NC(=O)[C@H](CC(=O)O)NC(=O)CNC(=O)[C@H](CCCNC(=N)N)NC2=O)C(=O)NCCOCCOCCOCCOCCC(=O)NCCCC[C@@H]2NC(=O)[C@@H](Cc3ccccc3)NC(=O)[C@H](CC(=O)O)NC(=O)CNC(=O)[C@H](CCCNC(=N)N)NC2=O)NC(=O)[C@@H](Cc2ccccc2)NC(=O)[C@H](CC(=O)O)NC(=O)CNC1=O` [indium-111 labelled] the retention half-life was > 30 h (planar imaging; athymic nude mouse, U-87 MG xenograft, tumour; intravenous).
`CSCC[C@H](NC(=O)[C@H](CC(C)C)NC(=O)[C@H](Cc1c[nH]cn1)NC(=O)CNC(=O)[C@@H](NC(=O)[C@H](C)NC(=O)[C@H](Cc1c[nH]c2ccccc12)NC(=O)[C@H](CCC(N)=O)NC(=O)CCCCCNC(=O)CNC(=O)CNC(=O)CNC(=O)CSC(C)=O)C(C)C)C(N)=O` [technetium-99m labelled] gave a tissue uptake of 1.49 ± 0.2 %ID/g (healthy Swiss mouse, stomach, contents removed; intravenous, 18.5 MBq, 5 min).
